Experimental data gathered from unrelated publications.
A part holds a random share of what one study measured. Several values in a cell are separate wells, animals, samples, runs or records.
UniProt O43683, sequence (whole entry, looked up): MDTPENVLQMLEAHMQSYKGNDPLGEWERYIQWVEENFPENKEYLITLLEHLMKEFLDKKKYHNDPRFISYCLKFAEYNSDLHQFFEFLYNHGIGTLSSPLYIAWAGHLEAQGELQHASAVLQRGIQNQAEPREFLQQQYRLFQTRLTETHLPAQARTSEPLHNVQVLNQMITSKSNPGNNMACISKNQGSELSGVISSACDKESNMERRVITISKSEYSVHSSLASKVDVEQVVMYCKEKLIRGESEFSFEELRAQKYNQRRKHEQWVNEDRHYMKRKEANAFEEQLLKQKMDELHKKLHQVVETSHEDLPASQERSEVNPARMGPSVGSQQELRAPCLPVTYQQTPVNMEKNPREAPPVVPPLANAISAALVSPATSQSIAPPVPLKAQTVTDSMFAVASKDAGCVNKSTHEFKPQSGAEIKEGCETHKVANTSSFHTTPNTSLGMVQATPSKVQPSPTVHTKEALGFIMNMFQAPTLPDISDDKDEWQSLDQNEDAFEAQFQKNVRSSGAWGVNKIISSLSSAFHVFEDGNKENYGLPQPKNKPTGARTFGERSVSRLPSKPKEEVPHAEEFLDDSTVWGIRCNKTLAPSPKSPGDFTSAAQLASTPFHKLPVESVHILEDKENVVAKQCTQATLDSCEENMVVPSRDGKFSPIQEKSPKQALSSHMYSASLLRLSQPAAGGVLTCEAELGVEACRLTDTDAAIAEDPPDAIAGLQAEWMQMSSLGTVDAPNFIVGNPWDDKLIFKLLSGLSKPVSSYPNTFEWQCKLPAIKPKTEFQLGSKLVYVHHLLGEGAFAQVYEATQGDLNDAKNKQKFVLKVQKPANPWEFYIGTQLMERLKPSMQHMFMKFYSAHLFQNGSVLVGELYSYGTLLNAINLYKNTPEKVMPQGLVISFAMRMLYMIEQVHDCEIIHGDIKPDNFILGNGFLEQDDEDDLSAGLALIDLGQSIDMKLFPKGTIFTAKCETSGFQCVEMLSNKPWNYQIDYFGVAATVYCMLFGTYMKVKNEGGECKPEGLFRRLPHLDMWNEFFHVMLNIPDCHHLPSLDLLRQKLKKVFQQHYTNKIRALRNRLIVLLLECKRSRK
UniProt O94768, sequence (whole entry, looked up): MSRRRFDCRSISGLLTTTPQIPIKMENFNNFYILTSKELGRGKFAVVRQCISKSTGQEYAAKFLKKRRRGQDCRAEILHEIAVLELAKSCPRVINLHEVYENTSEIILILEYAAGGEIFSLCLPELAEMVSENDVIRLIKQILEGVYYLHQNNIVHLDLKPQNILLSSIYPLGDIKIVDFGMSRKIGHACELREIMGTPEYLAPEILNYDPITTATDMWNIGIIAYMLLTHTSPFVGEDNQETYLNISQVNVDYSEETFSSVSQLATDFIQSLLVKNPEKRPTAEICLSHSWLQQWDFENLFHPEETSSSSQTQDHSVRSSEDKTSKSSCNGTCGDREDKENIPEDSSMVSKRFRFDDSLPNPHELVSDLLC

Sample 1 — host: human; matrix: microsomes or S9; tested at: 2 µM; time: 0.5 h
With `Cc1ccc(CN2C(=O)N(Cc3ccccc3)C(=O)C2CC(C)C)s1` (centres unmarked) the remaining compound was 3.07%.
With `Nc1nc(N2CCN(c3ccccc3Cl)CC2)nc2ccccc12` the remaining compound was 4.27%.
With `O=C(c1c(-c2ccccc2)cc(=O)n2c1CCC2)N1CCCC1` the remaining compound was 83.7%.

Sample 2 — effect on: enzyme activity; mode: inhibitor; tested at: 0.5 µM; baseline: control
Target: Focal adhesion kinase 1 (PTK2, Homo sapiens, UniProt Q05397)
UniProt Q05397, sequence (whole entry, looked up): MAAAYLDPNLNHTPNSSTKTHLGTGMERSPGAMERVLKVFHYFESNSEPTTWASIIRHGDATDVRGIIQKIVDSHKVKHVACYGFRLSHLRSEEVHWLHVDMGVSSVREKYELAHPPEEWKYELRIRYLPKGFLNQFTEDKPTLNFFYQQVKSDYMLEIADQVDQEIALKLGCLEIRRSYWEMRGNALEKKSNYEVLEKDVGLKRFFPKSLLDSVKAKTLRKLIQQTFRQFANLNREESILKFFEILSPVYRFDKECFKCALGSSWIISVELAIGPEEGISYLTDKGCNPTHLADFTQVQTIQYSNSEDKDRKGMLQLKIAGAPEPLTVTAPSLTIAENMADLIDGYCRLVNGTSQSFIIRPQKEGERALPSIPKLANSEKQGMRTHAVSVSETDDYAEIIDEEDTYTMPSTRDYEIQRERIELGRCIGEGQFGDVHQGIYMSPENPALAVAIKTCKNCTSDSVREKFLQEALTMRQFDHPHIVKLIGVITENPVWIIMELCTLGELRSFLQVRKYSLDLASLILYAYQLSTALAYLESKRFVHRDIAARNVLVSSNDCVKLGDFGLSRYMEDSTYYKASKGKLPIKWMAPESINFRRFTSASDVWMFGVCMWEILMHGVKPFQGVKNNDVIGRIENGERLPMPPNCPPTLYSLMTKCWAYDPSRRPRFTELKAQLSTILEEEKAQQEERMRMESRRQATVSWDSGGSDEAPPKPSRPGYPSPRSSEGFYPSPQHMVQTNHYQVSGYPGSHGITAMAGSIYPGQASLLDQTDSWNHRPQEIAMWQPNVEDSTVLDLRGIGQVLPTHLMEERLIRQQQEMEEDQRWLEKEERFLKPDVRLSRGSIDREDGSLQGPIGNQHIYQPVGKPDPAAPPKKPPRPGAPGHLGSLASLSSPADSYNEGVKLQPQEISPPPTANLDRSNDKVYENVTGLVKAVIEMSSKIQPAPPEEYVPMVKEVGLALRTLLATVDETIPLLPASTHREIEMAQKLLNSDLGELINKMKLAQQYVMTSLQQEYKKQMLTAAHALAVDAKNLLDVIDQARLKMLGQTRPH
The remaining activity of `Cc1cccc(-c2[nH]c(C(C)(C)C)nc2-c2ccc3c(c2)OCO3)n1` is reported as 98.1%.
`COc1cc2ncnc(Nc3ccc(Oc4ccccc4)cc3)c2cc1OC` has a remaining activity of 98.1%.
For `COc1cc2ncnc(Nc3ccc(F)c(Cl)c3)c2cc1OCCCN1CCOCC1`, the remaining activity was 103%.
`Cc1ccc(Nc2nccc(N(C)c3ccc4c(C)n(C)nc4c3)n2)cc1S(N)(=O)=O` gave a remaining activity of 76%.
`O=S(=O)(c1cccc2cnccc12)N1CCCNCC1` has a remaining activity of 93.9%.
With `CO[C@H]1C[C@@H]2CC[C@@H](C)[C@@](O)(O2)C(=O)C(=O)N2CCCC[C@H]2C(=O)O[C@H]([C@H](C)C[C@@H]2CC[C@@H](O)[C@H](OC)C2)CC(=O)[C@H](C)/C=C(\C)[C@@H](O)[C@@H](OC)C(=O)[C@H](C)C[C@H](C)/C=C/C=C/C=C/1C` the remaining activity was 103%.
The remaining activity of `COc1ccc(C(=O)Nc2sc3c(c2C(N)=O)CCCC3)cc1OC` is reported as 116%.
The remaining activity of `Nc1[nH]nc2nc3ccccc3nc12` is reported as 94.7%.
For `C#Cc1cccc(Nc2ncnc3cc(OCCOC)c(OCCOC)cc23)c1`, the remaining activity was 108%.
`COc1ccc(CNC(=O)Nc2ncc([N+](=O)[O-])s2)cc1` gave a remaining activity of 101%.
The remaining activity of `Cc1nc(-c2ccccc2)c(-c2ccncc2)o1` is reported as 106%.
With `CN(C)c1ccc(C=C2C(=O)Nc3ccccc32)cc1` the remaining activity was 104%.
For `O=C1NC(=O)C(c2cn(CCCn3ccnc3)c3ccccc23)=C1Nc1ccccc1`, the remaining activity was 104%.
With `Cc1ccc(NC(=O)c2ccc(CN3CCN(C)CC3)cc2)cc1Nc1nc(-c2cccnc2)cs1` the remaining activity was 98.6%.
The remaining activity of `CC(C)[C@H](CO)Nc1nc(Nc2cc(N)cc(Cl)c2)c2ncn(C(C)C)c2n1` is reported as 59.5%.
`Cn1c2ccccc2c2c3c(c4c5ccccc5n(CCC#N)c4c21)CNC3=O` gave a remaining activity of 77%.

Sample 3 — cell line: mouse MPNST tumor cells; technique: high-content immunofluorescence imaging; refers to: nuclear SOX9; tested at: 10 µM; time: 12 h; notes: mean of 2 replicates; baseline: DMSO control; direction: higher = more nuclear SOX9
Under “nuclear SOX9 intensity”, `COc1cc(-c2ccc(N=Nc3ccc4c(S(=O)(=O)O)cc(S(=O)(=O)O)c(N)c4c3O)c(OC)c2)ccc1N=Nc1ccc2c(S(=O)(=O)O)cc(S(=O)(=O)O)c(N)c2c1O` is recorded as 99.3 % of DMSO.
`O=C1Nc2ccc(Cl)cc2[C@@](C#CC2CC2)(C(F)(F)F)O1` — result for “nuclear SOX9 intensity”: 127 % of DMSO and 123 % of DMSO.
Under “nuclear SOX9 intensity”, `CCOc1cc(C(=O)Nc2ccc(Cl)c(-c3nc4ccccc4[nH]3)c2)cc(OCC)c1OCC` is recorded as 161 % of DMSO.

Sample 4 — technique: Phase 2a trial; host: idiopathic pulmonary fibrosis patients
SMILES: CC(C)n1cnc(-c2ccc(F)cc2)c1-c1ncc(C(=O)Nc2ccc(N3CCN(C)CC3)cc2)[nH]1
refers to: blood bilirubin increased; 60 mg once daily, grade 4 maximum intensity — “patients with adverse events”: 0%.
The “patients with adverse events” was 0% (refers to: chest discomfort; 30 mg once daily, grade 5 maximum intensity).
For refers to: oral herpes; oral, 60 mg once daily, grade 5 maximum intensity: “patients with adverse events” read 0%.

Sample 5 — Compound: CC(C)(O)c1cncc(-c2nc3ccc(F)cc3n2C2CC2)c1; effect on: cell-free assay; technique: competition with immobilised ligand; tested at: 1 µM
For Mitotic checkpoint serine/threonine-protein kinase BUB1 (BUB1, Homo sapiens, UniProt O43683): remaining binding read 99%.
Focal adhesion kinase 1 (PTK2, Homo sapiens, UniProt Q05397) — remaining binding: 100%.
Serine/threonine-protein kinase 17B (STK17B, Homo sapiens, UniProt O94768) — remaining binding: 77%.

Sample 6 — cell line: A-375; tested at: 100 µM; time: 18 h
With `CC(C)NCC(O)COc1cccc2[nH]ccc12` (centres unmarked) the viability was 89.4%.
The viability of `CCCCc1nc(Cl)c(CO)n1Cc1ccc(-c2ccccc2-c2nn[nH]n2)cc1` is reported as 94.2% and 101%.
The viability of `CC(C)C[C@H](NC(=O)[C@H](Cc1ccccc1)NC(=O)c1cnccn1)B(O)O` is reported as 17.9%.
For `C[C@]12C=CC(=O)C=C1CC[C@@H]1[C@@H]2[C@@H](O)C[C@@]2(C)[C@H]1CC[C@]2(O)C(=O)CO`, the viability was 112%.
